Measured values pooled from the literature.
Compare with care: the assays were run in different laboratories. “And” joins repeats or separate records; there may be more than shown. Numbers after ± are the reported error. Ends that are not written are not given here.
rep main protease: Replicase polyprotein 1ab, main protease (rep, Severe acute respiratory syndrome coronavirus 2, UniProt P0DTD1)
Spike glycoprotein: Spike glycoprotein (Severe acute respiratory syndrome coronavirus 2, UniProt P0DTC2)

For `CC(Nc1nc(N2CCN(CCN)CC2)nc2ccccc12)c1ccccc1` (stereo not drawn), the efficacy was 123% (SARS-CoV-2; cytopathic effect; USA_WA1/2020; retest 8-point).
`CCc1c(C(=O)C(N)=O)c2c(OCC(=O)O)cccc2n1Cc1ccccc1` has a viability difference of 5.08% (C2C12; 1 µM, together with: MH venom; baseline: venom alone).
For `Cc1cc(C)cc(-c2ccc(CN3CCCC3C(=O)NCc3cccc(F)c3)cc2)c1` (stereo not drawn), the efficacy was 15.1% (SARS-CoV-2; cytopathic effect; USA_WA1/2020; retest, 8-point, duplicates).
`CC[C@H](C)[C@H](NC(=O)[C@H](CC(C)C)NC(=O)[C@H](Cc1c[nH]c2ccccc12)NC(=O)[C@H](CCC(N)=O)NC(=O)[C@@H](NC(=O)[C@H](Cc1ccccc1)NC(=O)[C@H](C)NC(=O)[C@H](CCCCNC(=O)COCCOCCNC(=O)COCCOCCNC(=O)CC[C@H](NC(=O)CCCCCCCCCCCCCCCCCCC(=O)O)C(=O)O)NC(=O)[C@H](CCC(N)=O)NC(=O)[C@H](C)NC(=O)[C@@H](NC(=O)[C@H](CCCCN)NC(=O)[C@H](CC(=O)O)NC(=O)[C@H](CC(C)C)NC(=O)C(C)(C)NC(=O)[C@@H](NC(=O)[C@H](CO)NC(=O)[C@H](Cc1ccc(O)cc1)NC(=O)[C@H](CC(=O)O)NC(=O)[C@H](CO)NC(=O)[C@@H](NC(=O)[C@H](Cc1ccccc1)NC(=O)[C@@H](NC(=O)CNC(=O)[C@H](CCC(=O)O)NC(=O)C(C)(C)NC(=O)[C@@H](N)Cc1ccc(O)cc1)[C@@H](C)O)[C@@H](C)O)[C@@H](C)CC)[C@@H](C)CC)C(C)C)C(=O)N[C@@H](C)C(=O)NCC(=O)NCC(=O)N1CCC[C@H]1C(=O)N[C@@H](CO)C(=O)N[C@@H](CO)C(=O)NCC(=O)N[C@@H](C)C(=O)N1CCC[C@H]1C(=O)N1CCC[C@H]1C(=O)N1CCC[C@H]1C(=O)N[C@@H](CO)C(N)=O` — result for “subjects with serious adverse events”: 0% (healthy subjects; all MAD doses).
For `Nc1ncnc2c([C@@H]3N[C@H](CO)[C@@H](O)[C@H]3O)c[nH]c12`, the antigen-positive cells was 0.5% and 3% (Marburg virus; antibody staining; HeLa, Musoke; 25 µM).
With `Cc1cc(/C=C/C#N)cc(C)c1Nc1ccnc(Nc2ccc(C#N)cc2)n1` the EC50 was 0.0003 ± 4e-05 µM (HIV-1; viral replication, single-round infection; RT mutant E40K).
The maximum response of `CC(C)(Nc1nc(N2CCNCC2)nc2ccccc12)c1ccccc1` is reported as 39.7% (SARS-CoV-2; cytopathic effect; USA_WA1/2020; retest, 8-point, duplicates).
For `Cc1ccccc1-c1cccc(CN2CCN(C3CCN(C(C)C)CC3)C(CCO)C2)c1` (stereo not drawn), the remaining activity was 37% (Lassa mammarenavirus; viral replication; Huh-7; 10 µM, 72 h).
`Cc1ccc(-c2ccc3c(ccc4sc5c(c43)NC[C@@H](C)NC5=O)n2)cn1` gave an inhibition of -0.305% (rep main protease; reporter gene (mKate2), inhibitor; 20 µM).
The maximum response of `COc1ccc(CCNC(=O)c2cc(Nc3ccccc3)nc3ccccc23)cc1OC` is reported as 2.56% (SARS-CoV-2; cytopathic effect; USA_WA1/2020; retest, 8-point, duplicates).
`CNC(=O)[C@@H](NC(=O)[C@H](CC(C)C)[C@H](O)C(=O)NO)C(C)(C)C` gave a remaining activity of 100% and 96.9% and 98% (Daboia russelii venom proteases (SVMP); protease activity, inhibitor; AP population; 0.01 µM, together with: azocasein substrate; baseline: venom alone).
`CSc1nnc(CC2CCN(Cc3cc(C(C)(C)C)[nH]n3)CC2)n1C` gave a remaining activity of 30% (Lassa mammarenavirus; viral replication; Huh-7; 10 µM, 72 h).
For `Cl.Oc1ccc2[nH]cc(CCCCN3CC=C(c4ccccc4)CC3)c2c1`, the maximal inhibition was 90% (HeLa; Ebola VLP entry).
`Cn1cnc(Cn2c(=O)[nH]/c(=N\c3cc4cn(C)nc4cc3Cl)n(Cc3cc(F)c(F)cc3F)c2=O)n1` — result for “patients with adverse event”: 0% (human, all renal function groups; oral, 375 mg, treatment-related dry mouth, Moderate severity).
The inhibition of `CNC(=O)[C@@H](NC(=O)[C@H](CC(C)C)[C@H](O)C(=O)NO)C(C)(C)C` is reported as -0.586% (rep main protease; reporter gene (mKate2), inhibitor; 20 µM).
The inhibition of `COc1ccc2cc3[n+](cc2c1OC)CCc1cc2c(cc1-3)OCO2` is reported as 25 ± 0.9% (SARS-CoV-2 envelope protein; Vero C1008; 5 µg/mL).
`CN(C)CCCN1c2ccccc2Sc2ccc(Cl)cc21` has an IC50 of 5.7 µM (A2780; cell viability, neutral red uptake; together with: UVA 5 J/cm2).
The remaining activity of `Cc1oc(-c2ccccc2Cl)cc1C(=O)NCCc1c[nH]cn1` is reported as 23% (Lassa mammarenavirus; viral replication; Huh-7; 10 µM, 72 h).
For `NC(=O)CCNC(=O)c1ccccc1S`, the EC50 was 4.76 ± 1.15 µM (HIV-1; viral replication; human PBMC, subtype C 92BR025, CCR5-tropic clinical isolate).
With `VTQNVLYENQKLIAN` the responding donors was 14% (human CD4 T cells; AIM; peptide).
`CO[C@H]1/C=C/O[C@@]2(C)Oc3c(C)c(O)c4c(O)c(c(/C=N/N5CCN(C)CC5)c(O)c4c3C2=O)NC(=O)/C(C)=C\C=C\[C@H](C)[C@H](O)[C@@H](C)[C@@H](O)[C@@H](C)[C@H](OC(C)=O)[C@@H]1C` gave a Kd of 117 µM (Spike glycoprotein; binding, biolayer interferometry).
`NTNSSPDDQIGYY`: “frequency of responding donors” 33 (AIM; peptide, CD8+ T cells from PBMC, human donors; HLA-A*01:01 restricted, unit not given; baseline: positive over tested donors).
`COc1ccccc1-c1ccc(CN2CCC(NC(=O)Cc3ccc(F)cc3)C2)cc1` (stereo not drawn) has an efficacy of 99% (SARS-CoV-2; cytopathic effect; USA_WA1/2020; round 1, 5-point).
With `Cc1ccc(CN2CCN(C)C(=O)[C@H](C)NC(=O)CN(C)C(=O)[C@@H](Cc3c[nH]c4ccccc34)NC(=O)c3csc(n3)[C@H](CC(C)C)NC(=O)C2)cc1` the remaining activity was 66% (Lassa mammarenavirus; viral replication; Huh-7; 10 µM, 72 h).
`QPLRKLCILHRNPGRCYQKIPAFYYNQKKKQCEGFTWSGCGGNSNRFKTIEECRRTCIRK (dendrotoxin I; ends and bridges not checked; cysteine pairing not given here; sequence looked up)`: “time in long-lived DTX substate” about 97% (maxi-KCa channel, rat muscle; channel block, planar bilayer single-channel; 460 nM, internal).
With `CC(C)=CCC[C@](C)(O[C@@H]1O[C@H](CO)[C@@H](O)[C@H](O)[C@H]1O)[C@H]1CC[C@]2(C)[C@@H]1[C@H](O)C[C@@H]1[C@@]3(C)CC[C@H](O[C@@H]4O[C@H](CO)[C@@H](O)[C@H](O)[C@H]4O)C(C)(C)[C@@H]3CC[C@]12C` the Kd was 27.1 µM (Spike glycoprotein; binding, biolayer interferometry).
For `O=C(NCCCN1CCCCCC1)c1ccc2c(c1)sc1nc(-c3ccccc3)cn12`, the efficacy was 63.8% (SARS-CoV-2; cytopathic effect; USA_WA1/2020; retest, 8-point, duplicates).
`NITRFQTL` — result for “frequency of responding donors”: 20 (AIM; peptide, CD8+ T cells from PBMC, human donors; HLA-B*08:01 restricted, unit not given; baseline: positive over tested donors).
`O=C1Nc2ccc(Cl)cc2[C@@](C#CC2CC2)(C(F)(F)F)O1` has an EC50 of 0.0171 ± 0.0026 µM (HIV-1; viral replication, single-round infection; RT mutant G190S).
With `O=C(CCC1CCN(Cc2ccccc2)CC1)c1ccc2c(c1)NCCCC2` the IC50 was 10.9 µM (HeLa; Ebola VLP entry).
For `COc1ccccc1-c1cccc(CN2CCCC(C(=O)NCc3ccc(F)cc3)C2)c1` (stereo not drawn), the efficacy was 70.2% (SARS-CoV-2; cytopathic effect; USA_WA1/2020; round 1, 5-point).
`CC[C@H](C)[C@H](NC(=O)[C@H](Cc1ccc(O)cc1)NC(=O)[C@H](Cc1c[nH]c2ccccc12)NC(=O)[C@H](CC(C)C)NC(C)=O)C(=O)N[C@@H](CCCCN)C(N)=O` has a transition enthalpy of 4.18 kJ/mol (DSC; SOPC/cholesterol 7/3 bilayers; 5 mol%, pH 7.40).
For `COP(=S)(OC)Oc1ccc([N+](=O)[O-])c(C)c1`, the Vmax was 1.01 ± 0.22 nmol/min/mg protein (rat CYP2C; tolbutamide hydroxylation; liver microsomes; concentration not given).
The responding donors of `RLWLCWKCRSKNPLL` is reported as 7% (human CD4 T cells; AIM; peptide).
For `Cc1cnccc1N1CCCN(Cc2ccc(C#CC(C)(C)O)cc2)CC1`, the remaining activity was 57% (Lassa mammarenavirus; viral replication; Huh-7; 10 µM, 72 h).
`LNQLTGYKKPASREL` has a responding donors of 8% (human CD4 T cells; AIM; peptide).
`Cc1ccc2nc(Cl)c3cc(C(=O)NCCCN4CCC(C)CC4)sc3c2c1` has an AC50 of 3.55 µM (SARS-CoV-2; cytopathic effect, cell-based CPE; USA_WA1/2020; round 2, 5-point dilution).
`NSASFSTFK` — result for “response magnitude per positive donor”: 112 (AIM; peptide, CD8+ T cells from PBMC, human donors; dose not given).
`Cc1nc(C)c(CNC(=O)c2ccc(NC(=O)c3ccoc3C)cc2)s1` has a remaining activity of 40% (Lassa mammarenavirus; viral replication; Huh-7; 10 µM, 72 h).
`CCCC(=O)OCSc1ccccc1C(=O)NCCC(N)=O` has an EC50 of 2.75 ± 1.07 µM (HIV-1; viral replication; human PBMC, subtype F 93BR020, dual-tropic clinical isolate).
`Cc1cc(/C=C/C#N)cc(C)c1-n1cnc2cnc(Nc3ccc(/C=C/C#N)cc3)nc21` gave an EC50 of under 0.0023 µM (HIV-1; viral replication, single-round infection; RT mutant L234I).
The EC50 of `Cc1cn([C@H]2C[C@H](N=[N+]=[N-])[C@@H](CO)O2)c(=O)[nH]c1=O` is reported as 0.00629 ± 0.00011 µM (HIV-1; viral replication; human PBMC, subtype C 98IN017, CXCR4-tropic clinical isolate).
For `ASMPTTIAK`, “frequency of responding donors” read 100 (AIM; peptide, CD8+ T cells from PBMC, human donors; HLA-A*30:01 restricted, unit not given; baseline: positive over tested donors).
The Emax of `O=C1NCCCOc2cccc(c2)C2c3ccc(cc3CCN2Cc2ncc[nH]2)Oc2ccc(O)c1c2` (stereo not drawn) is reported as 93.9% (Lassa mammarenavirus; viral replication; Huh-7; concentration not given).
With `Cc1cc(/C=C/C#N)cc(C)c1-n1cnc2cnc(Nc3ccc4cc(C#N)ccc4c3)nc21` the EC50 was over 0.007 µM (HIV-1; viral replication, single-round infection; RT mutant D67E).
For `AGDSGFAAY`, “frequency of responding donors” read 25 (AIM; peptide, CD8+ T cells from PBMC, human donors; HLA-A*01:01 restricted, unit not given; baseline: positive over tested donors).
`Cn1c(Cn2ccc(C(F)(F)F)c(Oc3cc(Cl)cc(C#N)c3)c2=O)n[nH]c1=O` gave an EC50 of 0.003 ± 0.0001 µM (HIV-1; viral replication, single-round infection; RT mutant E138K/M184V).
For `O=C1CC2(CCN(S(=O)(=O)c3ccc(-n4cccn4)cc3)CC2)CN1`, the remaining activity was 45% (Lassa mammarenavirus; viral replication; Huh-7; 10 µM, 72 h).

Some of these lines once more:
`NSASFSTFK` — result for “response magnitude per positive donor”: 112 (AIM; peptide, CD8+ T cells from PBMC, human donors; dose not given).
`Cc1nc(C)c(CNC(=O)c2ccc(NC(=O)c3ccoc3C)cc2)s1` has a remaining activity of 40% (Lassa mammarenavirus; viral replication; Huh-7; 10 µM, 72 h).
`CCCC(=O)OCSc1ccccc1C(=O)NCCC(N)=O` has an EC50 of 2.75 ± 1.07 µM (HIV-1; viral replication; human PBMC, subtype F 93BR020, dual-tropic clinical isolate).
`Cc1cc(/C=C/C#N)cc(C)c1-n1cnc2cnc(Nc3ccc(/C=C/C#N)cc3)nc21` gave an EC50 of under 0.0023 µM (HIV-1; viral replication, single-round infection; RT mutant L234I).
The EC50 of `Cc1cn([C@H]2C[C@H](N=[N+]=[N-])[C@@H](CO)O2)c(=O)[nH]c1=O` is reported as 0.00629 ± 0.00011 µM (HIV-1; viral replication; human PBMC, subtype C 98IN017, CXCR4-tropic clinical isolate).
